Measured values from different studies.
Every numbered part comes from another study and shows a few of its results, in no order.

Series 1 — method: RNA Bind-n-Seq; molecule type: RNA; sample: in vitro; concentration: 365 nM; reference: no-protein control; reading: higher = stronger binding; measurement: RBNS enrichment (R)
Target: RNA binding protein fox-1 homolog 2, RRM domain, GST-SBP tag (RBFOX2, Homo sapiens, UniProt O43251-10, residues 100-194)
Notes: natural RNA segment, single round, ends assumed
Target sequence (chain): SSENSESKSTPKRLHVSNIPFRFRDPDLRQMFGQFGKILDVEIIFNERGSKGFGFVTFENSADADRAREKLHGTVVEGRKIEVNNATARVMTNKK
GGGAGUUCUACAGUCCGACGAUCGCGUCCACAAGGCCUCCUGAUACCAGCUUGGCUUCCCACAGCAAGCUCUAACUCUGAGAGCCUUUUGAGGAUGGGUGCUAGAGGGCCCGUGCCCCUAAAACAGCAGGCAGUGGAAUUCUCGGGUGCCAA: 0.337
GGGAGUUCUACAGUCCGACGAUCUUUCUGCCCAGCCCAUCUUGCCUGCAUGGUGCCUCUGGGUCUUUAAAGGAGGGUGGUAGGUACCAAGAACCAGUGGAGGGGACCCUGAGCUGGCAAGAGUAAGCCCCAUCUGGAAUUCUCGGGUGCCAA: 3.44
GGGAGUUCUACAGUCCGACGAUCGAGUCAUUCUCAUUGAAUUAUAAAAGCCAGCAGGCUUCAAACUAGGGGACAAAGCAAAAAGUGAUGAUAGUGGUGGAGUUAAUCUUAUCAAGAGUUGUGACAACUUCCUGUGGAAUUCUCGGGUGCCAA: 0.49
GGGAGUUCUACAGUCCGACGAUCGUUUCAUUGAGUCCAGCUGCAGCCACGUGGCCAUCUGGAGCUGGUGCUAUAGGUGACCAUCUGGUACAUUGAGGGGACCUGUUUGCCUCCUCCACUCUAUAAGCAGUCAUUGGAAUUCUCGGGUGCCAA: 1
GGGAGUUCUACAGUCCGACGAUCCUGCUACUUUGGGGAGUUGAUGGCCAGGAAAGAAGCCAGCACAGGGUUAAAGUAACUCCUGGCAUUGCCCACCAGGGGGCUGGUGCACCUGCUGACCUCAGGGUCACAGUUGGAAUUCUCGGGUGCCAA: 0.739
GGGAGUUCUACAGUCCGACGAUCCUGUGGGGUUUGUUAACAUGGAACUACUCAGCUUUCUUUCAGUCAACCCAUAAGCAAAUCAGAUAACCCACUGACUAUGAGAAUUACUUUAUAUAGAUAAUUCUUGACUGUGGAAUUCUCGGGUGCCAA: 0.396
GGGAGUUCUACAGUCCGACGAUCUGUGGUGAGAUCAUCUGUGUGGAGUUUUAAGAAGCUCUGGAAGAAGGUACUGCCCGCGUUUAAAGGAAGUGCCUUGGCUGGGGCAGCAGUGUCAGCUUGGAUAACUGAAAUGGAAUUCUCGGGUGCCAA: 0.578
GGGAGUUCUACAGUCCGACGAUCAAGCUGAGUGAUUUUUUUUUUUUCAUCAAUCCACACAUUUUUGUCCAUUGCUGUAAGAGAAGAAAACAUCUGAAAUGAGUAUGUUGAGCUUGAGGAAAAUUGUAUCAUAUUGGAAUUCUCGGGUGCCAA: 1.44
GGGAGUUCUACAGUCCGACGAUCUCUGCAGGCUGUGUAAGCAUGUUUACCUGUUGGCUUGCUUUGUGUGUCUGUUAAAUGAAUGUCAUAUGUAAAUGCUAAAAUAAAUCGACAGUGUCUCAGAACUGAAUAACUGGAAUUCUCGGGUGCCAA: 19.8
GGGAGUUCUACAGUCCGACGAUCAGCCCUUUCCAGCACUGUUGGUCUGAUGAACAAGGUUGUUUUACCUUAUUUUCUCUUGGAACAUAUCUGAAAACCUUCCCCACAAAUAACUUGUCACACCUUUUGUUUCAUGGAAUUCUCGGGUGCCAA: 0.214
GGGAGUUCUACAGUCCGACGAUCGACUCACCAUGGGCUGCUGGGGUGUCGGGAGAAGCCACACCCAACAUGCCCAUUAGCAGAGGCUGCUGCUGAUGUGGCAGCUGCUCCCUACCACCCGCCCUGGCUCCCCAUGGAAUUCUCGGGUGCCAA: 0.444
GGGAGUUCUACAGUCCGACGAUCGUUCACAGCAUUGCUUCUUCUUCUUCCUUCUCCACCUCCUUGUGGGAACGGGAUUAAGUUUAAAACUUUCCCGUUUCUUUUUUGUUCGGUUGGUUUGGGUUUUUUUUUUUUGGAAUUCUCGGGUGCCAA: 0.61

Series 2 — method: protein-binding microarray; molecule type: double-stranded DNA, one strand shown; sample: in vitro; concentration: not given; reading: higher = stronger binding; measurement: E-score
Target: Hepatocyte nuclear factor 3-beta, forkhead domain (FOXA2, Homo sapiens, UniProt Q9Y261, residues 142-269)
Notes: k-mer, scored over probes, only values ≥0.25
Construct (chain): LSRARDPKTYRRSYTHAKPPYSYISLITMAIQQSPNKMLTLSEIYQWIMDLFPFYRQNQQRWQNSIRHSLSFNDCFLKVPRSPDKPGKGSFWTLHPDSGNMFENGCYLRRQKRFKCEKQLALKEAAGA
GTAAACAA: 0.453
ACAATTAC: 0.276
ATTATATA: 0.348
CAGTATAA: 0.336
GTGAATAA: 0.265
TACAGTAA: 0.312
ATATACCG: 0.273
CGATAACA: 0.263
ATTTTCTA: 0.311
AAGACAAC: 0.278
CAACTTTA: 0.269
ACAATGAA: 0.325
ACTATTTA: 0.293
TGTCCACA: 0.343
GTGATTAA: 0.263
AAACACAA: 0.324
ACCTGTAT: 0.302
ATAGGATA: 0.291
CAATGTAA: 0.268
GTAATCAA: 0.3
AACCTATG: 0.253
CAACAAGG: 0.255
CAATTTAA: 0.261
AGACATAA: 0.301
ACACTGTA: 0.288

Series 3 — method: protein-binding microarray; molecule type: double-stranded DNA, one strand shown; sample: in vitro; concentration: 250 nM; notes: 60-bp whole probe; added: salmon DNA 0.4 mg/ml; reference: random background probes; reading: higher = stronger binding; measurement: log fluorescence; all sequences stand within: GCCTAGCAC … GTCTTGATTCGCTTGACGCTGCTG
Target: Interferon regulatory factor 5, full length, phosphomimetic (IRF5, Homo sapiens, UniProt Q13568-2, residues 1-514, K96S/S451D/S453D/S456D/S462D)
TCAATTTACATTTTAGTACTGTGCTAG: 1.04 z-score
TTAGAACTGGGGTATCGATTCGTGCTA: 1.82 z-score
GACGATATTAGTCTCGAGACGTGCTAG: 0.788 z-score
AACGGTATCGACTATCGGGACGTGCTA: 4.27 z-score
TTAGATTTCGGGGTTCGATTAGTGCTA: 3.29 z-score
TTAGATTTCGGGTATCGACTAGTGCTA: 6.56 z-score
TTAGGACTGCTTTGCCTTTAGTGCTAG: -0.162 z-score
TTAGATTTCGGGTTGCGATTAGTGCTA: 5.33 z-score
TTAGATGTCGGGACTGGATTAGTGCTA: -0.361 z-score
GACGGAATCGGTATCGGGACGTGCTAG: 1.47 z-score
TTAGAACTGGGGTTACGATTAGTGCTA: -0.266 z-score
TCACTTATTAAGATTGTGACTGTGCTA: 0.598 z-score
GACGGTCTCGGTTTCGGTACGTGCTAG: 7.21 z-score
TTAGGGCTCGGTTTCGGTTAGTGCTAG: 8.06 z-score
TTAGGACTGGGGTATCGGTAAGTGCTA: 1.22 z-score
TTAGGTCTCGGTCTCGTTTAGTGCTAG: 0.646 z-score
TCATTTTCATGCTCTTATACTGTGCTA: 2.13 z-score
TTAGATATCAGTCTCGATAAGTGCTAG: 2.12 z-score
GACGGTATCGTTTTCCTGACGTGCTAG: 2.57 z-score
TTAGGTATCGGTATCGGTTGGTGCTAG: 8.69 z-score

Series 4 — method: RNA Bind-n-Seq; molecule type: RNA; sample: in vitro; concentration: 1 µM; notes: whole 134-nt RNA, ends assumed; added: 150 mM KCl; reference: input library; reading: higher = stronger binding; measurement: log2 enrichment
Target: Ras GTPase-activating protein-binding protein 1, RRM domain (G3BP1, Homo sapiens, UniProt Q13283)
Chain of UniProt Q13283 (whole entry, looked up): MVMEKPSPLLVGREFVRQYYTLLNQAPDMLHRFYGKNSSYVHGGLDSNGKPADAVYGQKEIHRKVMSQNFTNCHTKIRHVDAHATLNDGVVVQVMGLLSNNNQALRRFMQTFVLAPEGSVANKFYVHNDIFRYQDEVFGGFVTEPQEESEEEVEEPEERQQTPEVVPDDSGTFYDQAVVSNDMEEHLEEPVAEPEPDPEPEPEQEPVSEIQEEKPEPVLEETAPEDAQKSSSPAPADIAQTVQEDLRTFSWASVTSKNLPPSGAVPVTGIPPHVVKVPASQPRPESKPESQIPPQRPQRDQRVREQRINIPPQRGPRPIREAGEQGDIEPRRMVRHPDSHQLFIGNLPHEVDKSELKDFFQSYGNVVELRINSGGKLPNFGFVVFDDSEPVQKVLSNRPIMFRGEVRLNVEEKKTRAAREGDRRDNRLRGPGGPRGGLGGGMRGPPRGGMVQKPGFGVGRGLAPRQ
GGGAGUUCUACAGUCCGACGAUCUGUGCUACACAUCGUAUGUACCGAAUCGGGGUUUUUUUGGGGUUUUUUUGGGUUUUUUUGGGGAAAGUAUUAUGUUACGCCGUUCGGAUCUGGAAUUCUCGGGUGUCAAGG: -0.21
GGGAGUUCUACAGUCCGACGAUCGCAGGAAGUAAAAACAAAUGGAAAUGCUUCGGAUAGUGGCAGGGGUGGGGGUUGCUAAGGAAAGGGUGGGAUUGGAGUGGGUAAAGAGUUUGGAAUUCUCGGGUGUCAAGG: 0.799
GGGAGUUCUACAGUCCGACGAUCCACAGACAACACGCACCCACACAGACACAGAGGGAAGGGGUUGGGAUGGGCACAGGGUGCACAGCAGGGCGGGGUAGGACCCCAGCCCCUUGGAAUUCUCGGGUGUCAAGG: 0.0656
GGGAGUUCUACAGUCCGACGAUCCUCAAGUCCUGUGCUACACAUCGUAUGUACCGAAUCGGGCCGGGGCCGGGCCGGAAAGUAUUAUGUUACGCCGUUCGGAUCUGCACUUCCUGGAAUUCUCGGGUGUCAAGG: -1.14
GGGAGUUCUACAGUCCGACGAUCCCUCAAGUCCUGUGCUACACAUCGUAUGUACCGAAUCGGGGCGGGCGGGCGGAAAGUAUUAUGUUACGCCGUUCGGAUCUGCACUUCCAGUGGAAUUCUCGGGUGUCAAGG: 0.271
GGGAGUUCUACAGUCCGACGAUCGGCGGAGCAGCUGAUGGAGGAGUGGAACGAAGACCUAGACGGCAUGGAGGGUUUCGUGCUGGAGGGCAAGAAGUUUGCGCGGCUGCCGGAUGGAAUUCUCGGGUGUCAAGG: -0.326
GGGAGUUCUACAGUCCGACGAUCCCUCAAGUCCUGUGCUACACAUCGUAUGUACCGAAUCGGAAAGGAAAGGUGGAAAGUAUUAUGUUACGCCGUUCGGAUCUGCACUUCCAGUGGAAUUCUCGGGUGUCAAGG: -0.131
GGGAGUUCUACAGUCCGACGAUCUUAGAUGAGUGACCGAGGAGGUGGCGUUCCUUUGAGGAAAAUUGACAGACUUUUCAACUACAUGUAUUCAACUGCACCAAGACCUCGUGUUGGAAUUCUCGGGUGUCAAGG: -0.146
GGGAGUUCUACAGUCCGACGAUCUGGGAGGUGGAUUUUGUUUAUUUUUUUAGCUCAUUUCCAGGGGUGGGAAUUUUUUUGUAAUAUGUGUCAUGAAUAAAGUUGUUUUUGAAAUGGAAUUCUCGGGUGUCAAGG: 2.19
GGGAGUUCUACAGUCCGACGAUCCCUGUGCUACACAUCGUAUGUACCGAAUCGGGCCCCCCCGGCCCCCCCGGCCCCCCCGGGGAAAGUAUUAUGUUACGCCGUUCGGAUCUGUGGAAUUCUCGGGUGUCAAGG: -0.653
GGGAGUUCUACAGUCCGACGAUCUCCUGUGCUACACAUCGUAUGUACCGAAUCGGGGUUUUUGGGGUUUUUGGGUUUUUGGGAAAGUAUUAUGUUACGCCGUUCGGAUCUGCAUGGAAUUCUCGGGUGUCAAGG: -0.0269
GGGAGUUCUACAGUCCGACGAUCCCUGUGCUACACAUCGUAUGUACCGAAUCGGAAAAAAGGGAAAAAAGGGGAAAAAAGGGGAAAGUAUUAUGUUACGCCGUUCGGAUCUGCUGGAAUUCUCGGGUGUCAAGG: -0.00793
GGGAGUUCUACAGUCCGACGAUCCCUCAAGUCCUGUGCUACACAUCGUAUGUACCGAAUCGGAGGAAAGGUUUGGAAAGUAUUAUGUUACGCCGUUCGGAUCUGCACUUCCAGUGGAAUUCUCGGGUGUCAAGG: -0.26
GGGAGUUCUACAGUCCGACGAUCUGGAGGAGCCAUAGAAUAUUAAGGAUGAAUUCAGGAAGGCCUGAGACCAUGGAAAACUUGCCUGCUCUCUACACUAUUUUCCAAGGAGAGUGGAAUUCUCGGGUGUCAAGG: -0.282
